# Measured values collected from several papers.
# Compare with care: the assays were run in different laboratories. pEC50, pIC50: −log10 of the molar value.
Structure (SMILES),organism,test,system,conditions,how to read,quantity,result
COc1c(CNC(=O)c2cc(C3CC3)nn2C)cccc1OC(F)(F)F,human respiratory syncytial virus,viral replication,"HEp-2, A-2",,,pEC50,> 7.60
Cc1cc(Oc2nc(N3CC[C@@H](c4ccncc4)C3)ncc2F)[nH]n1,Mycobacterium tuberculosis,,"THP-1, H37Rv non-replicating","96 h, end of hypoxic incubation",,pIC50,4.52
O=C(Cn1ccc(=O)c2ccccc21)N/N=C/c1cc(Br)c(O)c(Br)c1,Fusarium graminearum,microbial growth,,50 µg/mL,,inhibition,19%
CC(=O)[O-].O.O.[O-]c1ccc(Br)cc1C=NCCN1CCOCC1.[Zn+2],Salmonella enterica,,serovar Typhi,20 µL of 100 µM per disc,,inhibition zone diameter,24 mm
CC(C)C1=C[C@@]23CC[C@@H]4[C@](C)(CCC[C@@]4(C)C(=O)NCC#CCN4CCCNCC4)[C@H]2C[C@@H]1C1=C3C(=O)C=CC1=O,influenza A virus A/Puerto Rico/8/34 (H1N1),,MDCK,concentration not given,reference: compound over oseltamivir,relative antiviral activity,34
CS(=O)(=O)c1ccc(/C=N/NC(=O)Cn2ccc(=O)c3ccccc32)cc1,Fusarium graminearum,microbial growth,,50 µg/mL,,inhibition,7.1%
COC(=O)C1NC(=O)C2NC(=O)C(NC(=O)C3NC(=O)C4NC(=O)C(NC(=O)C(Nc5c(NCC(=O)NCC(=O)NCC(=O)O)c(=O)c5=O)c5ccc(O)c(c5)Oc5cc4cc(O)c5C)C(O)c4ccc(cc4)Oc4cc3cc(c4O)Oc3ccc(cc3)C2O)c2ccc(O)c(c2)-c2c(O)cc(O)cc21 (stereo not drawn),influenza virus,viral replication,,,,pEC50,5.30
Cc1cccc(-c2nc(Nc3ccncn3)c3sccc3n2)n1,Streptococcus pyogenes,"microbial growth, broth dilution",1308007P,,,MIC,> 64 µM
O=C1/C(=N\NC(=S)NN=Cc2cccs2)c2ccccc2N1Cc1ccccc1,influenza B virus,"viral cytopathogenicity, MTS",MDCK,,,pEC50,< 5.40
CNc1nc(SC)nc2ccccc12,Streptococcus pyogenes,"microbial growth, broth dilution",1308007P,,,MIC,> 64 µM
CC[C@H](C)[C@H](NC(=O)[C@H](CC(C)C)NC(=O)CNC(=O)[C@H](CCCCN)NC(=O)[C@@H](NC(=O)[C@@H](NC(=O)[C@H](CC(N)=O)NC(=O)[C@H](Cc1c[nH]c2ccccc12)NC(=O)[C@@H](NC(=O)[C@H](CCC(=O)O)NC(=O)CNC(=O)[C@H](Cc1c[nH]c2ccccc12)NC(=O)[C@@H](N)CC(C)C)[C@@H](C)CC)[C@@H](C)O)C(C)C)C(N)=O,Herpes simplex virus 1,"viral attachment, plaque reduction","Vero, F","1 h, 4 °C",,IC50,3.7 µg/mL
CN1CC(=O)N=C1N.C[C@H](CCC(=O)O)[C@H]1CC[C@H]2[C@@H]3[C@@H](O)C[C@@H]4C[C@H](O)CC[C@]4(C)[C@H]3CC[C@]12C,Salmonella enterica Typhimurium,,TISTR 1470,"1 mg per disc, 18 to 24 h, 37 °C, 6 mm disc",,inhibition zone,inactive
COC(=O)C1NC(=O)C2NC(=O)C(NC(=O)C3NC(=O)C4NC(=O)C(NC(=O)C(Nc5c(OC)c(=O)c5=O)c5ccc(O)c(c5)Oc5cc4cc(O)c5C)C(O)c4ccc(cc4)Oc4cc3cc(c4O)Oc3ccc(cc3)C2O)c2ccc(O)c(c2)-c2c(O)cc(O)cc21 (stereo not drawn),influenza virus,viral replication,,,,pEC50,5.62
CON(C(=O)c1cn(C)nc1C(F)F)C(C)Cc1c(Cl)cc(Cl)cc1Cl (stereo not drawn),Fusarium pseudograminearum,,,1.56 µg/mL,,inhibition,84.7%
CC(C)C1=C[C@@]23CC[C@@H]4[C@](C)(CCC[C@@]4(C)C(=O)OCC#CCN4CCCC4)[C@H]2C[C@@H]1[C@H]1C(=O)CCC(=O)[C@H]13,influenza A virus A/Puerto Rico/8/34 (H1N1),,MDCK,concentration not given,reference: compound over oseltamivir,relative antiviral activity,13
COc1ccc(-c2cc(=O)c3c(O)c(OC)c(O)c(OC)c3o2)cc1O,VSV-pseudotyped HIV-1,viral replication,MT-2,48 h,,pIC50,4.98
c1cc2c(s1)CCOC21CCN(Cc2ccc3c(c2)OCCO3)CC1,Streptococcus pyogenes,"microbial growth, broth dilution",1308007P,,,MIC,16 µM
CN1CC(=O)N=C1N.C[C@H](CCC(=O)O)[C@H]1CC[C@H]2[C@@H]3CC[C@@H]4C[C@H](O)CC[C@]4(C)[C@H]3CC[C@]12C,Salmonella enterica Typhimurium,,TISTR 1470,"1 mg per disc, 18 to 24 h, 37 °C, 6 mm disc",,inhibition zone,inactive
COc1ccc2nc(C)cc(OCC(=O)Nc3ccccc3OC)c2c1,Streptococcus pyogenes,"microbial growth, broth dilution",1308007P,,,MIC,16 µM
CC(CCC(=O)[O-])C1CCC2C3CCC4CC(O)CCC4(C)C3CC(O)C12C.C[N+](C)(C)CC(O)CC(=O)O (stereo not drawn),Salmonella enterica Typhimurium,,TISTR 1470,"1 mg per disc, 18 to 24 h, 37 °C, 6 mm disc",,inhibition zone,inactive
COc1ccc2nc(C)cc(OCC(=O)Nc3cc(C)cc(C)c3)c2c1,Streptococcus pyogenes,"microbial growth, broth dilution",1308007P,,,MIC,16 µM
CCCCCCCCCC(=O)OCC1OC(n2cc(C)c(=O)[nH]c2=O)CC1N(C)C (stereo not drawn),influenza B virus,viral cytopathic effect,MDCK,,,pEC50,< 6.64
COc1cc(-c2oc3cc(O[C@@H]4O[C@@H](C)[C@H](O)[C@@H](O)[C@H]4O)cc(O)c3c(=O)c2O[C@@H]2O[C@H](CO[C@@H]3O[C@@H](C)[C@H](O)[C@@H](O)[C@H]3O)[C@@H](O)[C@H](OC(C)=O)[C@H]2O)ccc1O,influenza virus,viral replication,MDCK,,,pEC50,5.89 to 5.92
Cc1ccc2nc(C(F)(F)F)c(C(=O)NCc3cccc(Cl)c3)n2c1,Streptococcus pyogenes,"microbial growth, broth dilution",1308007P,,,MIC,16 µM

# A few entries again:
Structure (SMILES),organism,test,system,conditions,how to read,quantity,result
CNc1nc(SC)nc2ccccc12,Streptococcus pyogenes,"microbial growth, broth dilution",1308007P,,,MIC,> 64 µM
CC[C@H](C)[C@H](NC(=O)[C@H](CC(C)C)NC(=O)CNC(=O)[C@H](CCCCN)NC(=O)[C@@H](NC(=O)[C@@H](NC(=O)[C@H](CC(N)=O)NC(=O)[C@H](Cc1c[nH]c2ccccc12)NC(=O)[C@@H](NC(=O)[C@H](CCC(=O)O)NC(=O)CNC(=O)[C@H](Cc1c[nH]c2ccccc12)NC(=O)[C@@H](N)CC(C)C)[C@@H](C)CC)[C@@H](C)O)C(C)C)C(N)=O,Herpes simplex virus 1,"viral attachment, plaque reduction","Vero, F","1 h, 4 °C",,IC50,3.7 µg/mL
CN1CC(=O)N=C1N.C[C@H](CCC(=O)O)[C@H]1CC[C@H]2[C@@H]3[C@@H](O)C[C@@H]4C[C@H](O)CC[C@]4(C)[C@H]3CC[C@]12C,Salmonella enterica Typhimurium,,TISTR 1470,"1 mg per disc, 18 to 24 h, 37 °C, 6 mm disc",,inhibition zone,inactive
